# Assay results from different studies.
# Every numbered part comes from another study and shows a few of its results, in no order.

# Study 1 — technique: protein-binding microarray; molecule type: double-stranded DNA, one strand shown; sample: in vitro; concentration: 250 nM; setting: 60-bp whole probe; added: salmon DNA 0.4 mg/ml; baseline: random background probes; direction: higher = stronger binding; shared flanks, not repeated: GCCTAGCAC … GTCTTGATTCGCTTGACGCTGCTG
# Target: Interferon regulatory factor 7, full length, phosphomimetic (IRF7, Homo sapiens, UniProt Q92985, residues 1-503, S101K/S471D/S472D/S475D/S476D/S477D/S483D/S484D/S487D)
# Residues (chain): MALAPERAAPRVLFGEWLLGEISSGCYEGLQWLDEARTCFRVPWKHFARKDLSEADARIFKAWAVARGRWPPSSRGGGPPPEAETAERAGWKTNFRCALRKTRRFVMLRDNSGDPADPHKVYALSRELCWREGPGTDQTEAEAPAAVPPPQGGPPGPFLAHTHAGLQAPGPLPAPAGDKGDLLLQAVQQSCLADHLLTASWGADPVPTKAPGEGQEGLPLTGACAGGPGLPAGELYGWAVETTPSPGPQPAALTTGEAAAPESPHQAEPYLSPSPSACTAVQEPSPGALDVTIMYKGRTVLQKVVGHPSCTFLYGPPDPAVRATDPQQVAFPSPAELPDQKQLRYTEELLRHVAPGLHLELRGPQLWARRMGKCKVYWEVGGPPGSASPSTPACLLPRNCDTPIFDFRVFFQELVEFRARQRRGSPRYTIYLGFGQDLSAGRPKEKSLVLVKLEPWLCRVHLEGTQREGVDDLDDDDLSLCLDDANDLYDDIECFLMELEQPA
Strand,log fluorescence [z-score]
GTTCTACCTCTGCCTTTTGTGTGCTAG,1.44
AAACCTATAGGGCCTGACTTCGTGCTA,-0.135
TTAGATTTCAGTTCCGATTCGTGCTAG,3.75
TTCACTTTCCAAAACATGAAGTGCTAG,0.954
GACGGTTTCCTTTCCATGACGTGCTAG,3.36
TTAGGTATCGACTATCGGTGAGTGCTA,0.127
TCATCATTTTCTTTAACACTGTGCTAG,0.93
GACGGTTTCGGGACTGGGGTCGTGCTA,3.72

# Study 2 — technique: protein binding microarray; molecule type: double-stranded DNA, one strand shown; sample: in vitro; concentration: not given; baseline: not given; direction: higher = stronger binding
# Target: Histone acetyltransferase KAT6A, winged helix 2, GST fusion (KAT6A, Homo sapiens, UniProt Q92794, residues 85-181)
# Setting: 8-mer, flanks averaged, mean of 2 arrays, mostly near background
# Target sequence (chain): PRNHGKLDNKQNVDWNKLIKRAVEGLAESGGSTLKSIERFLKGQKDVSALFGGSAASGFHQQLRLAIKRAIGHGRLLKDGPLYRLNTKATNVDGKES
Strand,E-score
AATTGCGC,0.0252
CATACGCC,0.0191
CACTTTCA,0.0518
CCTGATCG,0.0137
AATATAAC,0.03
AACACATC,-0.15
AGTGCGCA,0.0737
AGTGCATG,0.0184

# Study 3 — observed: enzyme activity; concentration: 20 µM; setting: with DTT
# Target: Replicase polyprotein 1ab, main protease (rep, Severe acute respiratory syndrome coronavirus 2, UniProt P0DTD1)
SMILES,inhibition [%]
NC[C@@H]1O[C@H](C23CC4CC(CC(C4)C2)C3)Cc2c1ccc(O)c2O,-14
Oc1ccc2ccccc2c1SSc1c(O)ccc2ccccc12,-61.1
CCN(CC)S(=O)(=O)c1cccc(-n2sc3ccccc3c2=O)c1,98.3

# Study 4 — mode: inhibitor; concentration: 20 µM
# Target: Replicase polyprotein 1ab, nsp13 helicase (rep, Severe acute respiratory syndrome coronavirus 2, UniProt P0DTD1)
SMILES,inhibition [%]
CC[C@@]1(O)C(=O)OCc2c1cc1n(c2=O)Cc2cc3c(N)cccc3nc2-1,7.97
Cn1c(=O)n(-c2ccc(C(C)(C)C#N)cc2)c2c3cc(-c4cnc5ccccc5c4)ccc3ncc21,-1.01
O=[N+]([O-])c1cc(Cl)ccc1S(=O)(=O)c1ccccc1,0.3
CO/N=C(\C(=O)N[C@@H]1C(=O)N2C(C(=O)O)=C(CSC(=O)c3ccco3)CS[C@H]12)c1csc(N)n1,74.4
Nc1nc(=O)c2nc(CNc3ccc(C(=O)N[C@@H](CCC(=O)O)C(=O)O)cc3)cnc2[nH]1,-1.84
CC[C@@H](C(N)=O)N1CCCC1=O,-2.88
CO[C@H]1/C=C/O[C@@]2(C)Oc3c(C)c(O)c4c(O)c(c(/C=N/N5CCN(C)CC5)c(O)c4c3C2=O)NC(=O)/C(C)=C\C=C\[C@H](C)[C@H](O)[C@@H](C)[C@@H](O)[C@@H](C)[C@H](OC(C)=O)[C@@H]1C,1.4
COc1ccc(OC)c(CN(C(C)=O)c2cc(F)ccc2Oc2ccccc2)c1,4.3
CCN1CCC[C@H]1CNC(=O)c1c(OC)ccc(Br)c1OC,1.81
CCCC(=O)O,5.18
CCC(=O)N1CCN(c2ccc(-n3c(=O)ccc4cnc5ccc(-c6cnc7ccccc7c6)cc5c43)cc2C(F)(F)F)CC1,1.54
COc1cc(NS(=O)(=O)c2ccc(N)cc2)nc(OC)n1,-2.34
CC(C)(C)NCC(O)CSc1nc(-c2ccc(C(N)=O)s2)cs1 (centres unmarked),-4.37
COc1cc(O)c2c(c1)C(=O)c1cc(C)cc(O)c1C2=O,38.4
C[N+](C)(C)CC#CCN1CCCC1=O,6.83
CC1=NN(c2ccccc2)C(=O)C1,-2.65
N[C@@H]1CONC1=O,0.81
O=C1NC(=O)/C(=C/c2cccc(C(F)(F)F)c2)S1,4.72
CCCCC#Cc1nc(NC)c2ncn([C@@H]3O[C@H](CO)[C@@H](O)[C@H]3O)c2n1,-1.91
NC(=S)N/N=C/c1ccncc1,4.48
COC(=O)/C=C/C(=O)OC,11.9
COc1ccccc1OC(=O)CNC(=O)Cc1ccc(C(=O)c2ccc(C)cc2)n1C,4.58
O=C(Nc1ccncc1)C(=O)c1cn(Cc2ccc(Cl)cc2)c2ccccc12,-3.27
Nc1ccncc1N,9.31
NS(=O)(=O)c1cc2c(cc1Cl)N=C(CSCc1ccccc1)NS2(=O)=O,0.72

# Study 5 — technique: RNA Bind-n-Seq; molecule type: RNA; sample: in vitro; concentration: 1 µM; setting: whole 134-nt RNA, ends assumed; added: 150 mM KCl; baseline: input library; direction: higher = stronger binding
# Target: Ras GTPase-activating protein-binding protein 1, C-terminal RGG region (G3BP1, Homo sapiens, UniProt Q13283)
# Chain of UniProt Q13283 (whole entry, looked up): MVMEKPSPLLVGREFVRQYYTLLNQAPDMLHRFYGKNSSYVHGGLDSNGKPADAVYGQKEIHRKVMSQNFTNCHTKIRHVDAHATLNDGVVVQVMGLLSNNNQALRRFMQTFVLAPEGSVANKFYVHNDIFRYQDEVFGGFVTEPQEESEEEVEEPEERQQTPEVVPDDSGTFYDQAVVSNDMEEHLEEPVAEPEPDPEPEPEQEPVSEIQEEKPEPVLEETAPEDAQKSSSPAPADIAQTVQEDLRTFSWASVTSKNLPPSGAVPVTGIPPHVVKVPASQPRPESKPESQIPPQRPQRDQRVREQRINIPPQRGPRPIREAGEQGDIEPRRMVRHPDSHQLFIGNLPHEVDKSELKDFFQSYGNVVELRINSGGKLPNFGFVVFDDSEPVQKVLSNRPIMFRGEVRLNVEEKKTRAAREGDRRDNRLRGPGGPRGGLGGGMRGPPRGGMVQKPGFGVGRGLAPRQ
# Shared flanks, not repeated: GGGAGUUCUACAGUCCGACGAUC … UGGAAUUCUCGGGUGUCAAGG
Strand,log2 enrichment
UAACUUUAGAGGAGGAUCUGAUGGAUAUGGCAGUGGACGUGGAUUUGGGGAUGGCUAUAAUGGGUAUGGAGGAGGGCCUGGAGGUGGCAA,0.29
ACCAUGCAGGUGGGCAUCUUUGGGAAGUGGGGCAAGGGGGGGAUAGGGAGGGGGGUAAUACUUUGGGAACAGGUGGUCCCAGGUCGUUUC,2.5
ACCAUGCAGGUGGGCAUCUUUGGGAAGUGGGGCAAGGGGGGGAUAGGGAGGGGGGUAACACUUUCGGAACAGGUGGUCCCAGGUCGUUUC,2.37
CUCAAGUCCUGUGCUACACAUCGUAUGUACCGAAUCGGAAAAAAAGGUGGUGGAAAGUAUUAUGUUACGCCGUUCGGAUCUGCACUUCCA,-1.23
UGGACUGCCUAUGGAAGAAGAAGUUCAAGAAGGAGCACGAGGAGUUUGAGACCAUGGAGAACGUGAACCGCCUUCUUCUGGAGAACGUCC,-1.1
UGGGAGGUGAAUUUUGUUUAUUUUUUUAGCUCAUUUCCAGGGGUGGGAAUUUUUUUUUAAUAUGUGUCAUGAAUAAAGUUGUUUUUGAAA,2.77
GCAGGAAGUAAAAACAAAUGGAAAUGCUUCGGAUAGUGGCAGGGGUGGGGGUUGCUAAGGAAAGUGUGGGAUGGGAGUGGGUAAAGAGUU,1.34
AAGUCCUGUGCUACACAUCGUAUGUACCGAAUCGGGGUUUUUGGGGAGGGGUGGGGAAAGUAUUAUGUUACGCCGUUCGGAUCUGCACUU,2

# Study 6 — cell line: HEK-293T; observed: pseudovirus infection; organism: VSV pseudotyped with SARS-CoV-2 spike; concentration: 10 µM; time: 16 h; baseline: vehicle-treated
Structure (SMILES),GFP-positive cells [%]
Nc1ncn([C@H]2C[C@H](O)[C@@H](CO)O2)c(=O)n1,95.7
CCc1c2c(nc3ccc(OC(=O)N4CCC(N5CCCCC5)CC4)cc13)-c1cc3c(c(=O)n1C2)COC(=O)[C@]3(O)CC,75.2
Cc1c(O)cccc1C(=O)N[C@@H](CSc1ccccc1)[C@H](O)CN1C[C@H]2CCCC[C@H]2C[C@H]1C(=O)NC(C)(C)C,73.9
CCc1nn(CCCN2CCN(c3cccc(Cl)c3)CC2)c(=O)n1CCOc1ccccc1,101

# Some of these lines once more (study 2):
Strand,E-score
AATATAAC,0.03
CATACGCC,0.0191
CCTGATCG,0.0137
AACACATC,-0.15
CACTTTCA,0.0518
AATTGCGC,0.0252
